Assay results of several laboratories.
A part holds a random share of what one study measured. Positions count from the first letter of the parent shown.

Series 1
Target: Histone acetyltransferase KAT6A, winged helix 2, GST fusion (KAT6A, Homo sapiens, UniProt Q92794, residues 85-181)
Technique: protein binding microarray
Form: double-stranded DNA, one strand shown
Matrix: in vitro
Concentration: not given
Notes: 8-mer, flanks averaged, mean of 2 arrays, mostly near background
Relative to: not given
Direction: higher = stronger binding
Residues (chain): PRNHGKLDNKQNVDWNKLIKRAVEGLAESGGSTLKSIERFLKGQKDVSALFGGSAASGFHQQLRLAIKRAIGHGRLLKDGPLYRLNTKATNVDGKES
Oligonucleotide	E-score
AGGGTCGA	0.0485
CAATCGAC	-0.204
AACGGCAT	0.0645
ATCAACTA	0.0783
CCATGGCA	-0.0148
CGACTAGA	-0.051
ATCCCGAT	-0.0398
GTCTTTCA	0.0457
GATAGGAC	-0.171
CGGAGCGC	0.236
CTTGGAGC	0.0238
CCATGAAA	0.0862
CTCTCAGA	-0.0476
CGACCGGA	-0.00105
ACAACCAA	-0.0535

Series 2
Target: CCNB1, cyclin fold, Cln2 fusion (human)
Technique: yeast growth competition, sequencing
Matrix: yeast
Notes: strong parent motif
Relative to: not given
Direction: higher = stronger binding
Parent: MICAL3 docking peptide (human); LQLRRQLSFSEDS
Change	normalised enrichment score
E11Q	3.01
R5L	0.445
R4S	3.06
S10V	2.11
S8K	1.17
Q2N	4.91
F9C	0.294
Q2G	4.81
L3Q	0.353
L7S	-0.268
L7M	0.836
F9V	-0.221
R5V	0.585
S8T	2.92
R5Q	0.496
L3G	0.607
D12T	4.13
L7Y	0.065
Q6L	0.82

Series 3
Target: Fragile X messenger ribonucleoprotein 1, C-terminal low-complexity region (Fmr1, Mus musculus, UniProt P35922)
Technique: RNA Bind-n-Seq
Form: RNA
Matrix: in vitro
Concentration: 200 nM
Notes: whole 134-nt RNA, ends assumed
Together with: 150 mM LiCl
Relative to: input library
Direction: higher = stronger binding
Library: 7-deaza-guanosine replaces G
Oligonucleotide	log2 enrichment
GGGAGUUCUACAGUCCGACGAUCCUCAAGUCCUGUGCUACACAUCGUAUGUACCGAAUCGGGUGGGAAAGGGUGGGAAAGUAUUAUGUUACGCCGUUCGGAUCUGCACUUCCAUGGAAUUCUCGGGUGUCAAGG	0.214
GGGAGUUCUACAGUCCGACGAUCUCAAGUCCUGUGCUACACAUCGUAUGUACCGAAUCGGGCCCGGCCCGGCCCGGGGAAAGUAUUAUGUUACGCCGUUCGGAUCUGCACUUCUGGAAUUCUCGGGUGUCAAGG	-1.69
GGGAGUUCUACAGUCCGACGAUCUCGUUCCCCCCGCCACGAGAAGAAGAAGAAGGUCCGUAAAUACUGGGACGUGCCACCCCCAGGCUUUGAGCACAUCACCCCAAUGCAGUAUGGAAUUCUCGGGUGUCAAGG	2.4
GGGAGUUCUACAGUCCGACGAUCGUGCUACACAUCGUAUGUACCGAAUCGGGGAAAAAAAGGGGUUUUUUUGGGGUUUUUUUGGGGAAAGUAUUAUGUUACGCCGUUCGGAUCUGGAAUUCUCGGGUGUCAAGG	-2.58
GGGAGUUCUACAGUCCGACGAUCUGUGCUACACAUCGUAUGUACCGAAUCGUGUGUGUGUGUGUGUGUGUGUGUGUGUGUGUGUGUAAAGUAUUAUGUUACGCCGUUCGGAUCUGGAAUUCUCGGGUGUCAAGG	0.217
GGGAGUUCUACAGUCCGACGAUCCAAGUCCUGUGCUACACAUCGUAUGUACCGAAUCGGGCCCGGGGCCCGGCCCGGGGAAAGUAUUAUGUUACGCCGUUCGGAUCUGCACUUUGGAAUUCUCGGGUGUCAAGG	-2.55
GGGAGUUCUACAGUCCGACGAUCUCCUCAAGUCCUGUGCUACACAUCGUAUGUACCGAAUCGGGCGGGCGGCGGAAAGUAUUAUGUUACGCCGUUCGGAUCUGCACUUCCAGCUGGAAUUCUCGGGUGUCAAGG	0.918

Series 4
Target: RNA binding protein fox-1 homolog 2, RRM domain, GST-SBP tag (RBFOX2, Homo sapiens, UniProt O43251-10, residues 100-194)
Technique: RNA Bind-n-Seq
Form: RNA
Matrix: in vitro
Concentration: 365 nM
Notes: natural RNA segment, single round, ends assumed
Relative to: no-protein control
Direction: higher = stronger binding
Residues (chain): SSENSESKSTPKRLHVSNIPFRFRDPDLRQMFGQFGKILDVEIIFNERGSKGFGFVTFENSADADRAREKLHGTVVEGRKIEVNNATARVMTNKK
Oligonucleotide	RBNS enrichment (R)
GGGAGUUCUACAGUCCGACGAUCCAGCCAGCUCCCCUGCAUCCCUUACAGCCAACAGCUCCCUUCAGGCUUAGAGCAGGGGGAAUGGCAGGGAUUAAGAGCUCAGCUCAGAGCCAGUUACCAAGAUGGAAUGGUGGAAUUCUCGGGUGCCAA	0.409
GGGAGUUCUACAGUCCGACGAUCAGGGCGACGACCCUCGCCGCGGGACCCGGGACUCGAGCCCGGGACUUCGCAGCUACAGCACAUCUAUUUUUAAUAUUGUGCUGAGCAAGACAGAUCGCUUGCAUAUUUUUUGGAAUUCUCGGGUGCCAA	0.348
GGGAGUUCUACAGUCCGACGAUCUCCCUUCUGAAGCAGAGAAGCCUCCAUGGUCACGAAGCAGCGUUGUGCUGUGUGUCCCUCGCAAGAAGCACAGGAAAGAGAAGUUUCUUUAGUAGCCACUAGACAACCACUGGAAUUCUCGGGUGCCAA	0.289
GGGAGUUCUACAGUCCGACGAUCCACUGUUUUCUGGAAAUAAAGCCCUACUCUACAAAAAAAAUGAAGAUGGCUUGUGGGAAAAGAUCUCUUCUCCAGGAAGUUAAAAAACAUGAAUUACCAAAGAAAGCACCUGGAAUUCUCGGGUGCCAA	0.372
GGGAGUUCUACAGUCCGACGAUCUCCUCAAACAGCAUGUUGUUGUUGGGGUGUUUUGUUUUGUUUUUGUUUGUUUUGGGUUUUUUUUUUUUUUUGCACAUGUAGAAAUUUUUUAAAAGAAGGAAAUUAAGACAUGGAAUUCUCGGGUGCCAA	9.84
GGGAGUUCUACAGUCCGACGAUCAUACAUAGUGUCGAGCUUUAGAUUGGUAUGAAAUUAAACAGCAAUGCAAAUAGAUUUAAUUCCUAUUUACUUUAAGAAUGAAAAACAAUGUUCAUUUUCCUACCUAAACAUGGAAUUCUCGGGUGCCAA	1.4
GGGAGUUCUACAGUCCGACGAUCUGAAGAUCUGCACACAGUAAGUGAUCCUCAGAAAUGUCCCUUCCAGCUCACAAACUCAGUUGGCCCGUGCUCCGUUCACCUGCGAAGGGCAGCCUAAUAUGAAGAUUGAUUGGAAUUCUCGGGUGCCAA	0.603
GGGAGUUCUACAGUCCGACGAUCCAGAUUGACACACACAGAUUGGUGGAAGAAUAGCUUCAGUCCUCUUCCUUCAUCCCAUAUGUAGGUAGCCUUGCUUGACAAAUGUUUCUUCUAACUCUCCUUCUUCUGAAUGGAAUUCUCGGGUGCCAA	0.543
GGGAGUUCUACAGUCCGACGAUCAGUGAAUGGGAAACACAUGUUCCUCUCUCCAGGUUACACUGAAACCUGUGUAGUGUGUACAGAGUGGGUAGGGACUAAACACAGGCCUAGCGUCUAUGAGUCUGUAUUCCUGGAAUUCUCGGGUGCCAA	0.448
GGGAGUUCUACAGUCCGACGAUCUACCUCUCCAGCCUCAGCUCUCAGUUGCAGCCCUGCUGCUGCCUGCCUGGACUUGGCCCCUGCCACCUCCUGCCUCAGGUGUCCGCUAUCCACCAAAAGGGCUCCCUGAGUGGAAUUCUCGGGUGCCAA	0.305
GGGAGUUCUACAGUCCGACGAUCAGUCAUGUAAUUGCACAGGACAAGGAGGUCAGCGUGUGUGAUGGCAGCAUGCUGUGCCGGCACAUCGUGGAGUCCUAGAAACUCUCUAGUCCCUGCGGCUGUUCCCCUCCUGGAAUUCUCGGGUGCCAA	17.3
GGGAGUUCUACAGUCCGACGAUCACAUCUGCCUGAUUCUUGCCAACACGAGGGGUGGAAAUGGGAGAAAAAGCUUUUAGUUGCUAAUUUGUUUCCGCUGAGCCAAGUGUUUGAGAAACCUGGACUAGAGCUUAUGGAAUUCUCGGGUGCCAA	0.656

Series 5
Target: RING finger protein unkempt homolog, zinc fingers 1-6, SBP tag (UNK, Homo sapiens, UniProt Q9C0B0, residues 30-357)
UniProt Q9C0B0, sequence (30-357, looked up): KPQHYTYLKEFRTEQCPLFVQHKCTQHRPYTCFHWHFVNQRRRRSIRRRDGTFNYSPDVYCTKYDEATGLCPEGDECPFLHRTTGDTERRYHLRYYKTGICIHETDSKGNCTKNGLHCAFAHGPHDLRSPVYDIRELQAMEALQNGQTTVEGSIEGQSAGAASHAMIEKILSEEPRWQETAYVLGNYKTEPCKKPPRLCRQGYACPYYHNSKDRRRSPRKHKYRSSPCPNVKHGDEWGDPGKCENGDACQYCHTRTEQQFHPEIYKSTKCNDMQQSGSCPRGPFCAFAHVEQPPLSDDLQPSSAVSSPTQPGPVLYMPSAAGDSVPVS
Technique: RNA Bind-n-Seq
Form: RNA
Matrix: in vitro
Concentration: 100 nM
Notes: RNA with constant flanks, vertebrate orthologous sites, ends assumed
Relative to: input RNA pool
Direction: higher = stronger binding
Oligonucleotide	bound/input enrichment
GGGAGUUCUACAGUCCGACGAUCUAUUAGUGUCAUACCAGCAUAUUAACCUCUCGUCUGUGCACAGCUUCCAACGUUACUGUCUAGUUAGAUUUUUAUUUAAAAUAUGAAAAACUGCUUUUCCCAAGACGUUUUUUAAAAACACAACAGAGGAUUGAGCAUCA	1.31 ratio
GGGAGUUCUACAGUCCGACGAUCGAUGAUGAUGAUGAUGAUGAUAAACAUUCUUACAUAUUUAUUGAAUGUUUAUAAGUUGUUCUCCCCUGACCCCGUAUCAAUUUUAUAUGUUUUGAAUUUUUGGAAAUGACCAUGUAUCUUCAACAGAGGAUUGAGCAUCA	0.432 ratio
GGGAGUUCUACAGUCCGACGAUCGCAUGAGCAUCUGCAUUAGCUCUGAAGACUUCUGCCCUCGGCUCCUCAUACAUUUAAUCACAUUUACACACCAAUUUUAUAAAAAUAGCAGUGUAGAUUCCAAGGGACUCUGAGCCUCCACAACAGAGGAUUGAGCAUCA	0.356 ratio
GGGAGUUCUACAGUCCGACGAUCAGCUUUGGACCUUGGAGCUGAACCAGGGAGCCAGCAAAGUAAAGCAGACGUGUAAAACUAUACCACAUGCAGCUGCACAAAAGCACCCUCACCAGCAGCUGUGUUAAACUAUUUAUAAAGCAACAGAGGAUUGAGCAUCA	0.247 ratio
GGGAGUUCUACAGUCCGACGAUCACGCUUCGAUGUUAAAUUUGACAUAAAGAGCAGCUGAUCAUAAGCACCAUUUUAUCCUCCUAGCCAUUUAAAAGUUUAAACAAAACAAAAAAAACCUACUAGUCUUGAACAAACUGUCAUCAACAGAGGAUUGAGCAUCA	0.744 ratio
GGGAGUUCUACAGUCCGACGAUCUGCUGUUAAUGCACUGUAUACCAGGCAUCGUCUGAACUUAGUGUAAACUAGGAGAUUUUAUAGUUUUAUUUUAAUGAAGUAUCGAUCGAAGCAAAGCUAUUAGGAGUAUGUAGUCUUUUACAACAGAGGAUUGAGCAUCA	2.02 ratio
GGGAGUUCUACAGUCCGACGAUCAAAUUUAUUUUAUGCCCUGGACUCCCUACCGCACUGAUACUUUAAUUGAAUUUGCUUCUUUAGAGGAUUUCCAAAACAGUCGCCAAACAACAACAUACAAACUACCAAACCGAGUAGAUGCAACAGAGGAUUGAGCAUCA	1.08 ratio
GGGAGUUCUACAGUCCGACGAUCUUUAAAUCUCUUCUCCCCUGUCCUGAUUUUAAAAGCCCCGCUUUUUUAAUUUUCUUUUUUUAGGCAUAUGUAGUAAUAUUAGAAACAUUUAAUUUGGGAAACUUUGAUUCUUAAAAGCGACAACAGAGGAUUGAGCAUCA	0.712 ratio
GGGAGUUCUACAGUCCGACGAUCCAUUGUAUCCUGCUGUAUAAUAAACAUUCUUACGCAUUUAUCAAAUGUUGAUAAAAUGUUAGCCCUUAACCACUUUUAUAUGUUUUAAAUUUUUGAAAUUCAAGUGUAUCUUCCAUAACACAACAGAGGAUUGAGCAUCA	0.624 ratio
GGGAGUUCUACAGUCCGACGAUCUGCAUUAUUUGACCAGAGUUGAGGUGACAGAAUUUGAAGACAUCAAAUCAGGUUACAGAAUAGAUUUUUAUUUUGAUGAGAAUCCAUACUUUGAAAAUAAAGUUCUCUCCAAAGAGUUUCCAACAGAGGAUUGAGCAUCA	0.677 ratio
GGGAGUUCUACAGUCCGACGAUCAUUGUAGUUUUGUUUUGCAUAAGAGUUUGUAUUAAAGAUCUUCAAAGGGUAAGGGAUACACUAGCAAUGGUCCCAGGUGCCUGGCCUCCAGUGCCCCAUUCGGAGCAAACCUAUCAGGGUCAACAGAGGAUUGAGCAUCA	0.221 ratio

Some of these lines once more (series 2):
Change	normalised enrichment score
L3Q	0.353
L7S	-0.268
L7M	0.836
F9V	-0.221
R5V	0.585
S8T	2.92
R5Q	0.496
L3G	0.607
D12T	4.13
